Measurements pooled from the literature.
“And” joins repeats or separate records; there may be more than shown. ± gives the spread as reported.

Structure (SMILES)	cell line	test	conditions	scale	endpoint	value
Cc1ccc2[nH]c3c(c2c1)CCCC3NCCc1ccc(O)cc1 (centres unmarked)	A549	–	50 µM, 23 h	–	non-viable cells	5.9 ± 7.1%
COc1ccc([C@@]23Oc4cc(OC)cc(OC)c4[C@@]24NC(C)=N[C@@]4(O)[C@H](C(=O)N(C)OC)[C@H]3c2ccccc2)cc1	A549	–	concentration not given	–	viability	50%
CC(C)(C)NCC(O)COc1cccc2c1CCC(=O)N2 (centres unmarked)	A549	MTT	72 h	–	CC50	133 to 400 µM
CN(C)c1cccc(C(=O)NCC2CCN(c3cc(-c4ccc(Cl)cc4)n[nH]3)CC2)c1	Vero-E6	CellTiter-Glo ATP	concentration not given, 72 h, second round 5-point	reference: DMSO 0%, hyamine -100%, more negative, more toxic	cytotoxicity efficacy	-28%
Fc1ccc2[nH]c3c(c2c1)CCCC3NCCc1ccc(Br)cc1 (centres unmarked)	A549	–	50 µM, 23 h	–	non-viable cells	10.8 ± 9.6%
C[n+]1ccc(-c2cc[n+](C)cc2)cc1	A549	–	concentration not given	reference: untreated control	viability	35.4% and 42.7% and 33.2% and 25.1% and 27.3%
Br.O=[N+]([O-])c1nccn1CC(O)CNCCBr (centres unmarked)	A549	–	4 h anoxic	reference: oxic IC50 over anoxic IC50	hypoxic cytotoxicity ratio	> 3.4
CC(C)C[C@H](NC(=O)[C@H](C)NC(=O)[C@@H](NC(=O)[C@H](CCCNC(=N)N)NC(=O)[C@H](CC(C)C)NC(=O)[C@H](Cc1c[nH]c2ccccc12)NC(=O)[C@@H]1CCCN1C(=O)[C@@H](N)CCCCN)C(C)C)C(=O)N[C@@H](CS)C(=O)N1CCC[C@H]1C(=O)NCC(=O)O	A549	WST-1	64 µM, 24 h	–	viability	87.9% and 94.2% and 87.3%
c1ccc(CCNC2CCCc3c2oc2ccc(-c4ccccc4)cc32)cc1 (centres unmarked)	A549	–	50 µM, 23 h	–	non-viable cells	5.9 ± 7.8%
CN(C)c1ccc(-c2nc(-c3cccs3)c(-c3cccs3)[nH]2)cc1	Vero-E6	CellTiter-Glo ATP	concentration not given, 72 h, first round 5-point	reference: DMSO 0%, hyamine -100%, more negative, more toxic	cytotoxicity efficacy	0%
CC[C@H](C)[C@H](NC(=O)[C@H](CCCCN)NC(=O)[C@H](CCCCN)NC(=O)[C@H](Cc1ccccc1)NC(=O)[C@@H](NC(=O)[C@@H](NC(=O)[C@H](CCCNC(=N)N)NC(=O)[C@H](Cc1ccccc1)NC(=O)[C@@H](NC(=O)[C@H](CCCCN)NC(=O)[C@H](CCCCN)NC(=O)[C@@H](N)CCSC)[C@@H](C)CC)C(C)C)[C@@H](C)CC)C(=O)N[C@@H](CC(C)C)C(=O)N[C@@H](CCCCN)C(=O)N[C@@H](CCCNC(=N)N)C(=O)N[C@@H](CC(C)C)C(=O)N[C@H](C(=O)N[C@H](C(=O)O)C(C)C)[C@@H](C)CC	A549	CCK-8	64 µg/mL, 24 h	–	viability	20.6%

Excerpt of the above:
Structure (SMILES)	cell line	test	conditions	scale	endpoint	value
CC(C)C[C@H](NC(=O)[C@H](C)NC(=O)[C@@H](NC(=O)[C@H](CCCNC(=N)N)NC(=O)[C@H](CC(C)C)NC(=O)[C@H](Cc1c[nH]c2ccccc12)NC(=O)[C@@H]1CCCN1C(=O)[C@@H](N)CCCCN)C(C)C)C(=O)N[C@@H](CS)C(=O)N1CCC[C@H]1C(=O)NCC(=O)O	A549	WST-1	64 µM, 24 h	–	viability	87.9% and 94.2% and 87.3%
c1ccc(CCNC2CCCc3c2oc2ccc(-c4ccccc4)cc32)cc1 (centres unmarked)	A549	–	50 µM, 23 h	–	non-viable cells	5.9 ± 7.8%
